Experimental data pooled from the literature.
Protocols differ between the studies behind these lines. Several values in a cell are separate wells, animals, samples, runs or records. Numbers after ± are the reported error. Converted amounts (≈) assume the structure as drawn.
rep main protease: Replicase polyprotein 1ab, main protease (rep, Severe acute respiratory syndrome coronavirus 2, UniProt P0DTD1)

O=C(Nc1nc(C23CC4CC(CC(C4)C2)C3)cs1)c1ccccc1
MIC (Histoplasma capsulatum; microbial growth): 5 to 20 µM (≈ 1.69 to 6.77 µg/mL)

CC[C@H](C)[C@H](NC(=O)[C@H](CC(C)C)NC(=O)[C@H](Cc1c[nH]c2ccccc12)NC(=O)[C@H](CCC(N)=O)NC(=O)[C@@H](NC(=O)[C@H](Cc1ccccc1)NC(=O)[C@H](C)NC(=O)[C@H](CCCCNC(=O)COCCOCCNC(=O)COCCOCCNC(=O)CC[C@H](NC(=O)CCCCCCCCCCCCCCCCCCC(=O)O)C(=O)O)NC(=O)[C@H](CCC(N)=O)NC(=O)[C@H](C)NC(=O)[C@@H](NC(=O)[C@H](CCCCN)NC(=O)[C@H](CC(=O)O)NC(=O)[C@H](CC(C)C)NC(=O)C(C)(C)NC(=O)[C@@H](NC(=O)[C@H](CO)NC(=O)[C@H](Cc1ccc(O)cc1)NC(=O)[C@H](CC(=O)O)NC(=O)[C@H](CO)NC(=O)[C@@H](NC(=O)[C@H](Cc1ccccc1)NC(=O)[C@@H](NC(=O)CNC(=O)[C@H](CCC(=O)O)NC(=O)C(C)(C)NC(=O)[C@@H](N)Cc1ccc(O)cc1)[C@@H](C)O)[C@@H](C)O)[C@@H](C)CC)[C@@H](C)CC)C(C)C)C(=O)N[C@@H](C)C(=O)NCC(=O)NCC(=O)N1CCC[C@H]1C(=O)N[C@@H](CO)C(=O)N[C@@H](CO)C(=O)NCC(=O)N[C@@H](C)C(=O)N1CCC[C@H]1C(=O)N1CCC[C@H]1C(=O)N1CCC[C@H]1C(=O)N[C@@H](CO)C(N)=O
subjects with application site erythema (healthy subjects; all MAD doses): 0%

CCN(CC)CCNC(=O)c1cc(-c2ccc(Br)s2)nc2ccccc12
efficacy (SARS-CoV-2; cytopathic effect; USA_WA1/2020; round 1, 5-point): 84.5%

O=C1c2c(O)c(=O)ccn2N([C@@H]2c3ccccc3SCc3c2ccc(F)c3F)[C@@H]2COCCN12
EC50 (Influenza A virus; viral replication, plaque reduction; A(H7N7); mean): 0.00032 ± 7e-05 µM

CNCCN(C)c1nc(NC(C)c2ccccc2)c2ccccc2n1 (stereo not drawn)
AC50 (SARS-CoV-2; cytopathic effect; USA_WA1/2020): 6.31 µM

CCC(CC)COC(=O)[C@H](C)N[P@](=O)(OC[C@H]1O[C@@](C#N)(c2ccc3c(N)ncnn23)[C@H](O)[C@@H]1O)Oc1ccccc1
replicon activity (SARS-CoV-2 replicon; N-HiBiT luminescence; HeLa; 0.02 µM; reference: DMSO): 116% and 94.5% and 122% and 100% and 155%

COc1ccc(N2CCN(CCCNC(=O)c3cc(Nc4ccc(OC)cc4OC)nc4ccccc34)CC2)cc1
maximum response (SARS-CoV-2; cytopathic effect; USA_WA1/2020; round 2, 5-point): 73.6%

O=C(c1cnn[nH]1)N1CCc2[nH]nc(C3CCC3)c2C1
remaining activity (Lassa mammarenavirus; viral replication; Huh-7; 10 µM, 72 h): 43%

Cl.N[C@@H](Cc1ccccc1)C(=O)N1C/C(=C/c2ccc(Cl)c(Cl)c2)C(=O)/C(=C\c2ccc(Cl)c(Cl)c2)C1
inhibition (rep main protease; reporter gene (mKate2), inhibitor; 20 µM): -1.39%

CS(=O)(=O)N(Cc1ccccc1)CC1CCOC2(CCN(C(=O)C3(c4ccccc4)CCCC3)CC2)C1 (stereo not drawn)
inhibition (Venezuelan equine encephalitis virus; viral replication; 40 µM): 70%

Cn1cnc(Cn2c(=O)[nH]/c(=N\c3cc4cn(C)nc4cc3Cl)n(Cc3cc(F)c(F)cc3F)c2=O)n1
patients with adverse event (human, all renal function groups; oral, 375 mg, hypertriglyceridaemia TEAE, Severe severity): 0%

CCCCCCCCCCCCN(C)C(=O)CP(=O)(O)O
MIC90 (Bacillus anthracis; Davis): 1.56 µg/mL (≈ 4.85 µM)

OCCN1CCN(CC/C=C2/c3ccccc3Sc3ccc(Cl)cc32)CC1
EC50 (SARS-CoV-2; viral replication, high-content imaging screen; BetaCov/Belgium/GHB-03021/2020; cell-based): > 100 µM

CC(C)(C)c1ccc(CN2CCN(C(c3ccccc3)c3ccc(Cl)cc3)CC2)cc1 (stereo not drawn)
selectivity index (Ebola virus Zaire; pseudovirus entry; A549; reference: CC50 over IC50): 4

Cc1ccnc(NC2CCOC3(CCN(C(=O)C4(c5ccccc5)CCCC4)CC3)C2)c1 (stereo not drawn)
inhibition (Venezuelan equine encephalitis virus; viral replication; 40 µM): 80%

CC(C)=CCc1c(O)ccc(C(=O)/C=C/c2ccc(O)cc2)c1O
inhibition (Severe acute respiratory syndrome coronavirus 2; cytopathic effect; Vero C1008; 3.125 µM): 0%

Nc1nc(Nc2ccc3c(c2)CC[C@@H](N2CCCC2)CC3)nn1-c1cc2c(nn1)-c1ccccc1CCC2
EC50 (SARS-CoV-2; viral replication, high-content imaging screen; BetaCov/Belgium/GHB-03021/2020; cell-based): > 50.1 µM

Cc1ccccc1C(=O)Nc1ccc(N2CCN(C(=O)c3cnccn3)CC2)nc1
IC90 (Mycobacterium tuberculosis; bacterial growth; H37Ra-lux; 168 h): 3.82 µM

CCc1c(C(=O)C(N)=O)c2c(OCC(=O)O)cccc2n1Cc1ccccc1
time of death (Daboia russelii; mouse; intravenous, 120 µg, up to 24 h, given 30 min after venom, with: northern venom intraperitoneal): > 24 h

Cc1c(NCc2cccnc2)cccc1C(=O)NCc1ccc2nonc2c1
remaining activity (Lassa mammarenavirus; viral replication; Huh-7; 10 µM, 72 h): 59%

CN1CCN(CCCN2c3ccccc3Sc3ccccc32)CC1
EC50 (SARS-CoV-2; viral replication, high-content imaging screen; cell-based): > 100 µM

COc1ccc(S(=O)(=O)NCCNc2nc(C)nc3sccc23)cc1
remaining activity (Lassa mammarenavirus; viral replication; Huh-7; 10 µM, 72 h): 39%

CC(C)C[C@H](NC(=O)[C@@H](NC(=O)c1cccc(-c2ccccc2)n1)[C@@H](C)O)B(O)O
inhibition (rep main protease; reporter gene (mKate2), inhibitor; 20 µM): -1.05%

NC(=O)c1ncn([C@@H]2O[C@H](CO)[C@@H](O)[C@H]2O)n1
EC90 (SARS-CoV; virus yield; Urbani; 96 h): 545 ± 63 µM

CNC(=O)[C@@H](NC(=O)[C@H](CC(C)C)[C@H](O)C(=O)NO)C(C)(C)C
viability difference (Daboia russelii; C2C12; 100 µM, with: Daboia russelii venom AP; reference: venom alone): -75.4%

COC(=O)[C@@H](N)COP1(=O)CO[C@@H](Cn2cnc3c(N)ncnc32)CO1 (stereo partly drawn)
IC50 (vaccinia virus; viral replication): 25 µM

Cc1ccc(Nc2ccnc(N3CCC(C(=O)NCCCc4ccccc4)CC3)n2)cc1
efficacy (SARS-CoV-2; cytopathic effect; USA_WA1/2020; retest, 8-point, duplicates): 62%

Cc1nc2n(n1)CC(=O)N[C@@H](C(C)C)CN(C(=O)c1ccncc1)CC(=O)N[C@@H](CC(C)C)c1nc(cs1)C(=O)N[C@H]2Cc1ccccc1
remaining activity (Lassa mammarenavirus; viral replication; Huh-7; 10 µM, 72 h): 100%

CCCCN(CCCNC(=O)c1cc(Nc2cccc(SC)c2)nc2ccccc12)Cc1ccccc1
AC50 (SARS-CoV-2; cytopathic effect, cell-based CPE; USA_WA1/2020; round 2, 5-point dilution): 3.55 µM

Nc1ncnc2c([C@@H]3N[C@H](CO)[C@@H](O)[C@H]3O)c[nH]c12
infected cells (Marburg virus; viral replication, antibody staining; HeLa, Musoke; 0.4 µM, 24 h): 12.9%

Nc1ncc(Cc2ccccc2)s1
MIC (Histoplasma capsulatum; microbial growth): > 20 µM

O=C(Nc1ccc(N2CCCN(C(=O)c3cnccn3)CC2)nc1)c1ccncc1
IC90 (Mycobacterium tuberculosis; bacterial growth; H37Ra-lux; 168 h): > 64 µM

CN1CCN(CCCN2c3ccccc3Sc3ccc(S(=O)(=O)N(C)C)cc32)CC1
EC50 (SARS-CoV-2; viral replication, high-content imaging screen; cell-based): > 100 µM

O=C(/C=C/c1ccc(O)c(O)c1/C=C/c1ccc(O)c(O)c1)O[C@H](Cc1ccc(O)c(O)c1)C(=O)O
CPE inhibition (SARS-CoV-2; viral replication; Vero E6; 12.5 µM; reference: mean of replicates): 0%

O=C1NCN(c2ccccc2)C12CCN(CCCC(c1ccc(F)cc1)c1ccc(F)cc1)CC2
EC50 (SARS-CoV-2; viral replication, GFP plate reader screen; cell-based): > 100 µM

Cc1ccc(N2CCC(NC(C)Cc3ncccc3C)CC2)cc1 (stereo not drawn)
remaining activity (Lassa mammarenavirus; viral replication; Huh-7; 10 µM, 72 h): 32%

N=C(N)c1ccc2cc(OC(=O)c3ccc(N=C(N)N)cc3)ccc2c1
survival (Daboia russelii; mouse; intravenous, 120 µg/mouse, 24 h, drug mixture, with: RJ venom 2.5 x LD50 preincubated): 0%

Nc1ccc2cc3ccc(N)cc3nc2c1
EC50 (SARS-CoV-2; viral replication, GFP plate reader screen; cell-based): 15 µM

COc1cccc(F)c1-c1c(-c2ccccc2)ncn1Cc1cnc(C)cn1
remaining activity (Lassa mammarenavirus; viral replication; Huh-7; 10 µM, 72 h): 35%

CCC1CCCCN1CCCNC(=O)c1sc2nc(C)cc(C)c2c1-n1cccc1 (stereo not drawn)
maximum response (SARS-CoV-2; cytopathic effect; USA_WA1/2020; retest, 8-point, duplicates): 53.2%

COc1ccc2c(c1)N(C[C@H](C)CN(C)C)c1ccccc1S2
EC50 (SARS-CoV-2; viral replication, GFP plate reader screen; BetaCov/Belgium/GHB-03021/2020; cell-based): 11.8 µM

CC1=CCN(S(=O)(=O)c2cccc(C(=O)NC(C)c3cnn(C)c3)c2)CC1 (stereo not drawn)
remaining activity (Lassa mammarenavirus; viral replication; Huh-7; 10 µM, 72 h): 49%

Nc1ncnc2c1ncn2[C@@H]1O[C@@H]2COP(=O)(O)O[C@H]3[C@@H](O)[C@H](n4cnc5c(=O)[nH]cnc54)O[C@@H]3COP(=O)(O)O[C@H]2[C@H]1O
fold enrichment (Chikungunya virus; upregulated Reactome pathway, RNA sequencing, item: Generic Transcription Pathway (R-HSA-212436); HFF-1; reference: CHIKV-infected untreated): 1.84

CC(Nc1nc(N2CCN(CCN)CC2)nc2ccccc12)c1ccccc1 (stereo not drawn)
AC50 (SARS-CoV-2; cytopathic effect, cell-based CPE; USA_WA1/2020; round 2, 5-point dilution): 5.62 µM

CC(Cc1ccsc1)Nc1ncnc2sccc12 (stereo not drawn)
remaining activity (Lassa mammarenavirus; viral replication; Huh-7; 10 µM, 72 h): 23%

Cn1c(=O)ccc2ccc(F)c(CCNC[C@H]3CN(c4cnc5c(n4)NC(=O)CO5)C(=O)O3)c21
MIC50 (Burkholderia pseudomallei; microbial growth): 0.25 µg/mL (≈ 0.534 µM)

Cc1c(CN2CCN(c3cccc(C(F)(F)F)c3)CC2)cc(-c2ccccc2)n1NC(=O)c1ccncc1
EC50 (SARS-CoV-2; viral replication, high-content imaging screen; cell-based): > 100 µM

CN(C)CCOC(c1ccc(Cl)cc1)c1ccccn1 (stereo not drawn)
selectivity index (Marburg virus; pseudovirus entry; A549; reference: CC50 over IC50): > 3

Cc1cc(C)cc(-c2ccc(CN3CCCC3C(=O)NCc3cccc(F)c3)cc2)c1 (stereo not drawn)
efficacy (SARS-CoV-2; cytopathic effect; USA_WA1/2020; round 1, 5-point): 87.1%

COc1ccc(C[C@@H]2c3cc(Oc4cc(C[C@@H]5c6cc(O)c(OC)cc6CCN5C)ccc4O)c(OC)cc3CCN2C)cc1
inhibition (Severe acute respiratory syndrome coronavirus 2; cytopathic effect, inhibitor; Vero C1008; 1.562 µM): 0%

CC(C)N1CCC(NC(=O)c2ccc(Cl)cc2Cl)CC1
effective antiviral concentration (influenza A virus H5N1 A/Vietnam/1203/04): 5 µM

Repeated from above:
CCN(CC)CCNC(=O)c1cc(-c2ccc(Br)s2)nc2ccccc12
efficacy (SARS-CoV-2; cytopathic effect; USA_WA1/2020; round 1, 5-point): 84.5%

O=C1c2c(O)c(=O)ccn2N([C@@H]2c3ccccc3SCc3c2ccc(F)c3F)[C@@H]2COCCN12
EC50 (Influenza A virus; viral replication, plaque reduction; A(H7N7); mean): 0.00032 ± 7e-05 µM

CNCCN(C)c1nc(NC(C)c2ccccc2)c2ccccc2n1 (stereo not drawn)
AC50 (SARS-CoV-2; cytopathic effect; USA_WA1/2020): 6.31 µM
